Assay results pooled from the literature.
± marks the error that the study gave.

With O=P(O)(OCc1ccccc1)Oc1c2c(c(OP(=O)(O)OCc3ccccc3)c3c1C1CC3c3cc4c(cc31)C1CC4c3ccccc31)C1CC2c2cc3c(cc21)C1CC3c2ccccc21 the EC50 was 4 µM (liposome dye leakage; liposomes 200 nm; 30 min, added: carboxyfluorescein 50 mM).
For CC[C@H](C)[C@H](NC(=O)[C@@H](NC(=O)[C@H](CC(=O)O)NC(C)=O)[C@@H](C)O)C(=O)N[C@@H](CCCNC(=N)N)C(=O)N[C@@H](CC(C)C)C(=O)N[C@@H](CC(C)C)C(=O)N[C@@H](Cc1ccccc1)C(=O)N[C@@H](CCC(N)=O)C(=O)N[C@@H](CC(C)C)C(=O)N[C@@H](CCSC)C(=O)N[C@@H](CCCNC(=N)N)C(=O)N1CCC[C@H]1C(=O)N1CCC[C@H]1C(=O)N[C@@H](CC(N)=O)C(=O)N[C@@H](CCSC)C(=O)N[C@H](C(=O)N1CCC[C@H]1C(=O)N[C@@H](C)C(=O)N[C@H](C(=O)N[C@@H](CC(N)=O)C(=O)N[C@@H](C)C(N)=O)C(C)C)[C@@H](C)O, “α4β7+ CCR9− cells” read 75% (refers to: HA-23 tetramer; antigen-experienced tetramer+ CD4 T cells, healthy adults, HLA-DRB1*0101; dose not given).
Under “ABTS radical scavenging”, O=c1c(O)c(-c2cc(O)ccc2O)oc2cc(O)cc(O)c12 is recorded as 57.2 ± 1.11% (125 µg/mL).
Under “log2 fold change”, Cc1ccc(/C=C/C(=O)O)cc1-c1cc2c(cc1C)C(C)(C)CCC2(C)C is recorded as -0.41 (RNA sequencing, refers to: Inmt mRNA; rat, brain; dose not given, 24 h, single dose; reference: vehicle).
The fold induction of O=C1C=CC(=O)C(c2cc(Cl)ccc2Cl)=C1 is reported as roughly 20 fold (ELISPOT, refers to: IFNγ+ cells; human peripheral blood; concentration not given, maximal induction, comparable dose; reference: SSG).
For O=P(O)(OCc1ccc(-c2ccccc2)cc1)Oc1c2c(c(OP(=O)(O)OCc3ccc(-c4ccccc4)cc3)c3c1C1CC3c3cc4c(cc31)C1CC4c3ccccc31)C1CC2c2cc3c(cc21)C1CC3c2ccccc21, the EC50 was 14.1 µM (liposome dye leakage; liposomes 200 nm; 30 min, added: carboxyfluorescein 50 mM).
Under “GFAP-positive glial activation”, `somatostatin` is recorded as 50% (Sprague-Dawley rat, streptozotocin-induced diabetes, retina; eye drops, 10 mg/mL, score 1).
O=C(O)/C=C/c1ccc(O)cc1 — result for “ABTS radical scavenging”: 57.3 ± 1.6% (125 µg/mL).
The EC50 of CCCCCCCOP(=O)(O)Oc1c2c(c(OP(=O)(O)OCCCCCCC)c3c1C1CC3c3cc4c(cc31)C1CC4c3ccccc31)C1CC2c2cc3c(cc21)C1CC3c2ccccc21 is reported as 4.4 µM (liposome dye leakage; liposomes 200 nm; 30 min, added: carboxyfluorescein 50 mM).
With COC[C@@H](NC(C)=O)C(=O)NCc1ccc(OCc2cccc(OC(F)(F)F)c2)cc1 the ED50 was 12 mg/kg (6 Hz seizures; mouse; intraperitoneal).
For CCN(CCCCOc1ccc(CCC(=O)N2CCC(Cc3ccccc3)CC2)cc1OC)Cc1ccccc1, the step-down latency was 135 s (step-down passive avoidance; scopolamine-induced amnesic mice; 2.8 mg/kg).
The inhibition of CC(C)C[C@@H](NC(=O)[C@H]1CCCN1C(=O)[C@H]1CCCN1C(=O)[C@@H](CCCNC(=N)N)NC(=O)[C@@H](CCCNC(=N)N)NC(=O)[C@@H](CCCNC(=N)N)NC(=O)[C@@H](CCC(N)=O)NC(=O)[C@@H](CCCNC(=N)N)NC(=O)[C@@H](CCCNC(=N)N)NC(=O)[C@@H](CCCCN)NC(=O)[C@@H](CCCCN)NC(=O)[C@@H](CCCNC(=N)N)NC(=O)CNC(=O)[C@H](N)Cc1ccc(O)cc1)C(=O)N[C@H](CCCNC(=N)N)C(=O)N[C@H](CCCCN)C(=O)N[C@H](CCCCN)C(=O)N[C@H](CCCCN)C(=O)N[C@H](CCCCN)C(=O)N[C@H](CCCCN)C(=O)N[C@H](Cc1c[nH]cn1)C(N)=O is reported as roughly 55% (8-Br-cGMP-induced vasodilation; mouse, mesenteric resistance arteries; dose not given, intraluminal perfusion, 80 mmHg, added: 8-Br-cGMP).
Under “ABTS radical scavenging”, COc1ccc([N+](=O)[O-])cc1NC(=O)CCC(=O)[O][Zn][O]C(=O)CCC(=O)Nc1cc([N+](=O)[O-])ccc1OC.c1ccncc1 is recorded as 63.21 ± 0.16% (ABTS; 15.62 µg/mL).
Cc1cc(Nc2nc(C[C@@]3(C(=O)O)CCN(Cc4cccc(Cl)c4F)[C@H](C)C3)cc(C)c2F)[nH]n1: “time to peak effect” 12 h (refers to: phospho-histone H3 (Ser10); NCI-H446 xenograft mice, tumour tissue; oral, 10 mg/kg single).
Under “antigen-experienced T cells”, CC[C@H](C)[C@H](NC(=O)[C@H](Cc1c[nH]c2ccccc12)NC(=O)[C@H](CCCNC(=N)N)NC(=O)[C@H](CCCCN)NC(=O)[C@H](CC(C)C)NC(=O)[C@H](CC(=O)O)NC(=O)[C@H](Cc1ccccc1)NC(=O)[C@H](C)NC(=O)[C@H](Cc1ccc(O)cc1)NC(=O)[C@H](CC(N)=O)NC(=O)[C@H](Cc1ccc(O)cc1)NC(=O)[C@H](CCCNC(=N)N)NC(=O)[C@H](Cc1ccc(O)cc1)NC(=O)[C@H](Cc1ccc(O)cc1)NC(=O)[C@@H](NC(=O)[C@H](CC(C)C)NC(=O)[C@H](C)NC(=O)[C@H](CC(N)=O)NC(=O)[C@H](Cc1ccc(O)cc1)NC(C)=O)[C@@H](C)CC)C(=O)N[C@@H](Cc1ccc(O)cc1)C(=O)N[C@@H](CC(C)C)C(N)=O is recorded as 22.6% (refers to: HA-52 tetramer; tetramer+ CD4 T cells, PBMC, healthy adults, HLA-DRB1*0101; dose not given, CD62L−CD45RA+/− or CD62L+CD45RA−).
CC1=C(C(=O)Nc2ccc(F)cc2)C(c2ccccc2Cl)NC(=S)N1 (stereo not drawn) — result for “mean arterial pressure”: 22.9 ± 0.92 mm Hg (carotid artery cannulation; male Wistar rats, anaesthetised; 0.3 mL, 3 h).
For CCc1nnc(-c2c(OC)cc(-c3cnc4cc(-c5cnn(C)c5)ccn34)cc2OC)o1, mRNA level read “increased” (RT-qPCR, refers to: Ctsk; male C57BL/6J mouse, cortical bone; oral gavage, dose not given, 3 wk once daily; reference: vehicle).
For O=C(O)CCCC(=O)O, “ABTS radical scavenging” read 81.2 ± 1.31% (1000 µg/mL).
CC(C)C[C@H](NC(=O)[C@H](CC(N)=O)NC(=O)[C@@H](NC(=O)[C@@H](NC(=O)[C@@H](N)CCCNC(=N)N)C(C)C)[C@@H](C)O)C(=O)NCC(=O)N[C@@H](CCCNC(=N)N)C(=O)N1CCC[C@H]1C(=O)O gave an NO production of 60% (Griess; RAW264.7, mouse; 1000 µg/mL, 24 h, added: heat-killed Cutibacterium acnes 100 µg/mL; reference: no peptide control).
C[C@@H](NC(=O)[C@@H](N)Cc1ccc(O)cc1)C(=O)NCC(=O)N(C)[C@@H](Cc1ccccc1)C(=O)NCCO has an EC50 of 0.34 ± 0.02 µM (C57BL/6 mouse striatal membranes).
O=C(O)/C=C/c1cc(O)cc(O)c1 — result for “ABTS radical scavenging”: 65.2 ± 1.03% (250 µg/mL).
For N=C(N)NCCC[C@H](NC(=O)[C@H](CCCNC(=N)N)NC(=O)[C@H](CCCNC(=N)N)NC(=O)[C@H](CCC(N)=O)NC(=O)[C@H](CCCNC(=N)N)NC(=O)[C@H](CCCNC(=N)N)NC(=O)[C@H](CCCCN)NC(=O)[C@H](CCCCN)NC(=O)[C@H](CCCNC(=N)N)NC(=O)[C@H](Cc1c[nH]c2ccccc12)NC(=O)[C@H](Cc1c[nH]c2ccccc12)NC(=O)[C@@H](N)CSSC[C@H](N)C(=O)N[C@@H](Cc1c[nH]c2ccccc12)C(=O)N[C@@H](Cc1c[nH]c2ccccc12)C(=O)N[C@@H](CCCNC(=N)N)C(=O)N[C@@H](CCCCN)C(=O)N[C@@H](CCCCN)C(=O)N[C@@H](CCCNC(=N)N)C(=O)N[C@@H](CCCNC(=N)N)C(=O)N[C@@H](CCC(N)=O)C(=O)N[C@@H](CCCNC(=N)N)C(=O)N[C@@H](CCCNC(=N)N)C(=O)N[C@@H](CCCNC(=N)N)C(=O)NCC(N)=O)C(=O)NCC(N)=O, the tdTomato-positive astrocytes was roughly 50% (ROSA26-LSL-tdTomato mice, sensorimotor cortex; intracortical, 200 µM, region 2, added: TAT-Cre 40 µM).
With CCN(Cc1ccccc1)C(=O)CCc1nc(CN2CCN(C(=O)Cc3ccc(OC)c(OC)c3)CC2)no1 the onset day was 11 days (cold withdrawal threshold, cold plate; mouse CCI model; 5 mg/kg, 4 °C, dosing from day 11).
For CS(C)(=O)=Nc1ccc(-c2ccc(-c3nc4cc(O[C@@H]5CO[C@H]6[C@@H]5OC[C@H]6O)[nH]c4cc3F)cc2)cc1, liver weight read “decreased” (ob/ob mouse, AMLN diet NASH model; oral, 5 mg/kg daily, 8 weeks; reference: vehicle).

A few entries again:
The EC50 of CCCCCCCOP(=O)(O)Oc1c2c(c(OP(=O)(O)OCCCCCCC)c3c1C1CC3c3cc4c(cc31)C1CC4c3ccccc31)C1CC2c2cc3c(cc21)C1CC3c2ccccc21 is reported as 4.4 µM (liposome dye leakage; liposomes 200 nm; 30 min, added: carboxyfluorescein 50 mM).
With COC[C@@H](NC(C)=O)C(=O)NCc1ccc(OCc2cccc(OC(F)(F)F)c2)cc1 the ED50 was 12 mg/kg (6 Hz seizures; mouse; intraperitoneal).
For CCN(CCCCOc1ccc(CCC(=O)N2CCC(Cc3ccccc3)CC2)cc1OC)Cc1ccccc1, the step-down latency was 135 s (step-down passive avoidance; scopolamine-induced amnesic mice; 2.8 mg/kg).
The inhibition of CC(C)C[C@@H](NC(=O)[C@H]1CCCN1C(=O)[C@H]1CCCN1C(=O)[C@@H](CCCNC(=N)N)NC(=O)[C@@H](CCCNC(=N)N)NC(=O)[C@@H](CCCNC(=N)N)NC(=O)[C@@H](CCC(N)=O)NC(=O)[C@@H](CCCNC(=N)N)NC(=O)[C@@H](CCCNC(=N)N)NC(=O)[C@@H](CCCCN)NC(=O)[C@@H](CCCCN)NC(=O)[C@@H](CCCNC(=N)N)NC(=O)CNC(=O)[C@H](N)Cc1ccc(O)cc1)C(=O)N[C@H](CCCNC(=N)N)C(=O)N[C@H](CCCCN)C(=O)N[C@H](CCCCN)C(=O)N[C@H](CCCCN)C(=O)N[C@H](CCCCN)C(=O)N[C@H](CCCCN)C(=O)N[C@H](Cc1c[nH]cn1)C(N)=O is reported as roughly 55% (8-Br-cGMP-induced vasodilation; mouse, mesenteric resistance arteries; dose not given, intraluminal perfusion, 80 mmHg, added: 8-Br-cGMP).
